Measured values pooled from the literature.
Numbered parts are unrelated; each lists some results of a single study. Positions count from the first letter of the parent shown.

Study 1 — target: CCNF, cyclin fold, Cln2 fusion (human); method: yeast growth competition, sequencing; sample: yeast; notes: strong parent motif; reference: not given; reading: higher = stronger binding; endpoint: normalised enrichment score
Starting sequence: SCAPER docking peptide (human); SNARRSLNFGGST
SNARRSLNFGGQT [S12Q]: 7.65
SNARRSLNNGGST [F9N]: 0.393
SNARRSLFFGGST [N8F]: 8.28
SNERRSLNFGGST [A3E]: 1.22
SNARRSLYFGGST [N8Y]: 8.1
SNARRSLNFGGSR [T13R]: 7.76
SNARRSLNPGGST [F9P]: 1.52
SNARRSLNFGGCT [S12C]: 7.79
SNARRSLNFGWST [G11W]: 7.82
SNARRSLNWGGST [F9W]: 2.55
SNARRQLNFGGST [S6Q]: 7.75
SNARRSLNFGCST [G11C]: 7.2
CNARRSLNFGGST [S1C]: 8.4
SNARRSLNFVGST [G10V]: 5.13
SNAHRSLNFGGST [R4H]: 2.92
SNARRSSNFGGST [L7S]: 0.993
SNARRSLNIGGST [F9I]: 1.63
SEARRSLNFGGST [N2E]: 5.57
SNARRSLNFGGET [S12E]: 7.41
SNARRSLNFGVST [G11V]: 7.45
SNARRSLRFGGST [N8R]: 7.03
SNARRSLNFYGST [G10Y]: 7.32
SLARRSLNFGGST [N2L]: 5.9
SNARRSLNFGGSC [T13C]: 6.99
SNARRSLNFGGRT [S12R]: 5.77

Study 2 — method: aptamer microarray, sandwich; molecule type: DNA with 2'F-ANA; sample: in vitro; tested at: 200 nM; together with: Cy3 exosite-II aptamer, 400 nM; reading: higher = stronger binding; endpoint: mean fluorescence intensity; sequence: GGTTGGTGTGGTTGG
Target: Prothrombin, mature alpha-thrombin (F2, Homo sapiens, UniProt P00734)
Notes: whole 15-mer aptamer, many near background
2'F-ANA at 1 3 4 5 6 7 10 11 13 14: 51.5 a.u.
2'F-ANA at 1 2 3 9 10 11 14: 59.7 a.u.
2'F-ANA at 1 4 6 10 11 15: 56.2 a.u.
2'F-ANA at 3 4 7 10 12 13 15: 298 a.u.
2'F-ANA at 2 3 5 6 7 11 12 13: 104 a.u.
2'F-ANA at 2 3 4 6 7 8 9 11 12 13 14: 249 a.u.
2'F-ANA at 2 3 4 5 6 7 8 9 11 12 15: 135 a.u.
2'F-ANA at 2 11 14: 140 a.u.
2'F-ANA at 1 2 3 5 6 7 11 12 14 15: 58.8 a.u.
2'F-ANA at 1 2 4 6 9 11 12 15: 169 a.u.
2'F-ANA at 4 5 6 7 8 10 13 14: 46.3 a.u.
2'F-ANA at 1 3 5 9 10 12 14: 49.8 a.u.
2'F-ANA at 5 7 9 11 15: 66 a.u.
2'F-ANA at 2 3 6 7 9 10 12 13: 332 a.u.
2'F-ANA at 1 2 3 4 8 9 10 11 12: 68.6 a.u.
2'F-ANA at 2 3 6 8 11 12 14 15: 355 a.u.
2'F-ANA at 1 3 4 8 10 11 15: 59.1 a.u.
2'F-ANA at 4 6 8 9 11 12 14 15: 86.9 a.u.
2'F-ANA at 1 2 3 4 5 10 13 14 15: 43.8 a.u.
2'F-ANA at 3 6 9 13 14: 497 a.u.
2'F-ANA at 1 3 4 5 6 8 10 11 13 14 15: 50.4 a.u.
2'F-ANA at 1 4 5 6 7 8 9 10 14: 44.6 a.u.
2'F-ANA at 1 2 3 4 5 12 15: 110 a.u.
2'F-ANA at 3 6 7 8 12 14: 644 a.u.
2'F-ANA at 3 4 5 9 10 13 15: 48.5 a.u.

Study 3 — target: BIRC6 UBC core domain (UniProt Q9NR09); method: yeast two-hybrid; sample: yeast; notes: mostly zero background; reference: not given; reading: higher = stronger interaction; endpoint: lacZ reporter activity
B1: ZNF598 RING domain (UniProt Q86UK7); chain AAAPERGGGSCVLCCGDLEATALGRCDHPVCYRCSTKMRVLCEQRYCAVCREELRQVVFGK
B2: CUL9 RING domain (UniProt Q8IWT3); chain AQAVPVRPDHCPVCVSPLGCDDDLPSLCCMHYCCKSCWNEYLTTRIEQNLVLNCTCPIADCPAQPTGAFIR
B3: TRIM63 RING domain (UniProt Q969Q1); chain PMENLEKQLICPICLEMFTKPVVILPCQHNLCRKCANDIFQAANPYWTSRGSSVSMSGGRFRCPTCRHEVIMDRHGV
B4: ARK2C RING domain (UniProt Q6ZSG1); chain EGEESDTDEKCTICLSMLEDGEDVRRLPCMHLFHQLCVDQWLAMSKKCPICRVDIETQLGAD
B5: RC3H2 RING domain (UniProt Q9HBD1); chain QAAQWTEFLSCPICYNEFDENVHKPISLGCSHTVCKTCLNKLHRKACPFDQTAINTDIDVL
B6: TRIM69 RING domain (UniProt Q86WT6); chain VIQDITMELHCPLCNDWFRDPLMLSCGHNFCEACIQDFWRLQAKETFCPECKMLCQYNNCTF
B7: PHF21A RING domain (UniProt Q96BD5); chain SPTSTDGDIHEDFCSVCRKSGQLLMCDTCSRVYHLDCLDPPLKTIPKGMWICPRCQDQMLKKEEAIPW
B8: UHRF2 RING domain (UniProt Q96PU4); chain CGGDPEKKCHSCSCRVCGGKHEPNMQLLCDECNVAYHIYCLNPPLDKVPEEEYWYCPSCKTDSSEVVKAGER
Residues (chain): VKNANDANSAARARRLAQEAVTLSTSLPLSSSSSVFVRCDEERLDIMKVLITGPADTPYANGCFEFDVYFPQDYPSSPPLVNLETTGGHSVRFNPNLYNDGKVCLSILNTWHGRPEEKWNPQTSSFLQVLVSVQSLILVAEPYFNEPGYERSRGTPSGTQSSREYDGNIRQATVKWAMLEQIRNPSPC
B1 (ZNF598 RING domain): 0
QLRRLQEERTCKVCMDKEVSVVFIPCGHLVVCQECAPSLRKCPICRGIIKGTVRTF (BIRC2 RING domain (UniProt Q13490)): 0
B2 (CUL9 RING domain): 0
B3 (TRIM63 RING domain): 0
B4 (ARK2C RING domain): 0
B5 (RC3H2 RING domain): 0
B6 (TRIM69 RING domain): 0
B7 (PHF21A RING domain): 0
B8 (UHRF2 RING domain): 0
DDENSDNSNECVVCLSDLRDTLILPCRHLCLCTSCADTLRYQANNCPICRLPFRALLQIR (MGRN1 RING domain (UniProt O60291)): 0
YWAMDSTFELCKICAESNKDVKIEPCGHLLCSCCLAAWQHSDSQTCPFCRCEIKGWEAVS (CBLC RING domain (UniProt Q9ULV8)): 0

Study 4 — method: DHFR PCA, deep sequencing; sample: yeast; together with: (+)-ABA 0.032 µM; reference: wild-type fitted maximum; reading: higher = stronger binding; endpoint: relative binding score
Target: ABI1, truncated, D143A, DHFR fusion (Arabidopsis thaliana)
Notes: methotrexate growth selection, single substitutions
Starting sequence: PYL1, truncated, DHFR fusion (Arabidopsis thaliana); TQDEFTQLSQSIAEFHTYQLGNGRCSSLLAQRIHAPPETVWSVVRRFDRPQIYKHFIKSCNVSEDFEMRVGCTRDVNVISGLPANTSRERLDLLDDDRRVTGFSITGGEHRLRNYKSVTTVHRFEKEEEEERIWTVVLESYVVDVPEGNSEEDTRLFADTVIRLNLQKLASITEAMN; partner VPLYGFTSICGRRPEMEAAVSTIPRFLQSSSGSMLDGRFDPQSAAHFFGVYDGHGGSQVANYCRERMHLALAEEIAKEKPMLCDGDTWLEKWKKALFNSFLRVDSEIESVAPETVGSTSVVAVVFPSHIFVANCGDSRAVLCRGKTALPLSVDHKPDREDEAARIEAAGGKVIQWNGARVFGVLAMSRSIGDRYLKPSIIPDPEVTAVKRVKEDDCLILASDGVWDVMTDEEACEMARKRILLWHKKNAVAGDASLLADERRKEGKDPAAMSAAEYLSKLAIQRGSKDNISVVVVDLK
V145R: -5.74%
M176L: 9.58%
N114V: 0.308%
D144S: -1.59%
R90Y: -0.841%
R113L: 19.3%
R45V: -2.21%
R45D: 1.68%
R24V: 13.5%
E151M: 27.7%
Q10A: 45.1%
I79S: 18.7%
T106F: 11.8%
T106P: 2.43%
T119V: 2.21%
D144K: 0.88%
E131Y: 18.7%
F124M: 45.6%
S87K: 6.91%
L29Q: 6.06%
Q51N: 1.28%
R163D: -0.627%
R155S: 0.273%
T73G: -3.31%
S104N: 4.29%

Some of these lines once more (study 1):
SNARRSLYFGGST [N8Y]: 8.1
SNARRSLNFGCST [G11C]: 7.2
SNERRSLNFGGST [A3E]: 1.22
SNARRSLNFGGQT [S12Q]: 7.65
SLARRSLNFGGST [N2L]: 5.9
